Results gathered from unrelated publications.
Parts stem from different laboratories: compare values within a part only. Substitutions count along the parent as printed.

Block 1
Target: Interferon regulatory factor 3, full length, phosphomimetic (IRF3, Homo sapiens, UniProt Q14653, residues 1-427, S386D/S396D/S398D/S402D/T404D/S405D)
Method: protein-binding microarray
Form: double-stranded DNA, one strand shown
Matrix: in vitro
Tested at: 2540 nM top
Setting: 60-bp whole probe
Added: salmon DNA 0.4 mg/ml
Reference: random background probes
Reading: higher = stronger binding
All sequences stand within: GCCTAGCAC … GTCTTGATTCGCTTGACGCTGCTG
Construct (chain): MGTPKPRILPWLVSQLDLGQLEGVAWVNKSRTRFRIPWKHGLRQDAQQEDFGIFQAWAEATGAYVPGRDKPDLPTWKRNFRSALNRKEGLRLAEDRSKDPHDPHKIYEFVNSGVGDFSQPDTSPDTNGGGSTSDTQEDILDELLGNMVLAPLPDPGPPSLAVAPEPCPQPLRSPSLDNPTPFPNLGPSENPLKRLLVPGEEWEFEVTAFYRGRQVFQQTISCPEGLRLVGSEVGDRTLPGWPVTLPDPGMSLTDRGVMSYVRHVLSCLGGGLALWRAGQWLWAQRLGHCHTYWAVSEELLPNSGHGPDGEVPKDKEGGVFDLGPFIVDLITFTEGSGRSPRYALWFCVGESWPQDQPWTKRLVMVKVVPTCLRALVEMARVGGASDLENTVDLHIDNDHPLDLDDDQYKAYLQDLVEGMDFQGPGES
| Sequence | fitted relative affinity [z-score] |
| --- | --- |
| TTAGGACTGGGGTTTCGGTTGGTGCTA | 1.48 |
| TTAGGTCTCCTACTGCTTAAGTGCTAG | 0.874 |
| GACGGTATCGACACTGAGGACGTGCTA | 0.736 |
| CAGTTTCTCTTTCCTTCTTGGTGCTAG | 10.1 |
| TCTACTTCTGTTTTTGCTTTGTGCTAG | 0.898 |
| TTAGAACGGGGGTTTCGATTAGTGCTA | 1.84 |
| TCAAACTTAGTTTTCAAACTGTGCTAG | 2.16 |

Block 2
Target: CCNB2, cyclin fold, Cln2 fusion (human)
Method: yeast growth competition, sequencing
Matrix: yeast
Setting: weak parent motif
Reference: not given
Reading: higher = stronger binding
Starting sequence: MASTL docking peptide (human); PMIAKNLMCELDE
| Substitution | normalised enrichment score |
| --- | --- |
| L7T | -0.357 |
| C9H | 0.359 |
| C9P | 0.89 |
| N6K | 0.343 |
| N6Y | 0.12 |

Block 3
Target: Sal-like protein 4, full length isoform B (SALL4, Homo sapiens, UniProt Q9UJQ4-2, residues 1-616)
Method: universal PBM
Form: double-stranded DNA, one strand shown
Matrix: in vitro
Tested at: not given
Setting: 8-mer, flanks averaged, mean of replicates
Reading: higher = stronger binding
Target sequence (chain): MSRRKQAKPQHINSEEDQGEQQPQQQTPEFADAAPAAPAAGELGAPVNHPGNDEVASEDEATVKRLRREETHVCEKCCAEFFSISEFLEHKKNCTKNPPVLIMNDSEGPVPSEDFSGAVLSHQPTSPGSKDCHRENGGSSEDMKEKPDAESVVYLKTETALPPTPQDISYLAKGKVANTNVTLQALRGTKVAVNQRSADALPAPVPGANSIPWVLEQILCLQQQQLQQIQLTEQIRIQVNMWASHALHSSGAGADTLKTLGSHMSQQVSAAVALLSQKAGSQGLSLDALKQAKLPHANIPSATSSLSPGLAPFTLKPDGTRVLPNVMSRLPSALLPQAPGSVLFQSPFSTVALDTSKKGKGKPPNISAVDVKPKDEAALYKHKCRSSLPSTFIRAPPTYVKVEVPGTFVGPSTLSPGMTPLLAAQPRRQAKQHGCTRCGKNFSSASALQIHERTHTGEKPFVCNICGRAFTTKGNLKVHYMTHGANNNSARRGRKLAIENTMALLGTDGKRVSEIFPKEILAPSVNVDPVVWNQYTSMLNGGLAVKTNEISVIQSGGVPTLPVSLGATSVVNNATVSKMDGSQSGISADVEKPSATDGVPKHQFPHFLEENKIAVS
| Sequence | E-score |
| --- | --- |
| CATCATCG | 0.115 |
| GGGGTCAC | -0.345 |
| TCTGGACA | -0.142 |
| AACCATAG | 0.078 |

Other studies, line by line
| Substance | target | test | system | setting | scale | quantity | value |
| --- | --- | --- | --- | --- | --- | --- | --- |
| PhoQ, residues 284 288 289 292 302 303 ASVMEA | PhoP, residues 12 14 15 18 19 AGCRL (Escherichia coli, UniProt P23836) | Sort-seq, item: YFP reporter | E. coli | PhoQ-PhoP variant library, added: 10 µM Mg2+ | reference: high Mg2+ state, higher = stronger signaling | fold induction | 11.2 |

Excerpt of the above (block 3):
| Sequence | E-score |
| --- | --- |
| GGGGTCAC | -0.345 |
| TCTGGACA | -0.142 |
| AACCATAG | 0.078 |
